# Measurements gathered from unrelated publications.
# Each line is one published result; not all experiments were run side by side.
# Organism: Candida albicans
Structure (SMILES),test,test system,conditions,scale,MIC
CC(C)=CCc1cc(-c2coc3cc(O)c(CC=C(C)C)c(O)c3c2=O)ccc1O,,ATCC 10231,,,128 µg/mL
O=C1OCC(NCc2ccccc2)N1/N=C/c1ccc([N+](=O)[O-])o1 (stereo not drawn),"microbial growth, broth dilution",ATCC14053,18 h,,> 50 µg/mL
C/C(=N\Nc1nc(-c2ccc(Cl)cc2)cs1)c1ccc2c(c1)sc1nc(=O)c(C#N)cn12,broth microdilution,,,,< 207 µg/mL
O=C(NCCNCCO)c1cn(Cc2cccc(Br)c2)c2cc(Cl)c(OCc3ccc(C(F)(F)F)cc3)cc2c1=O,,ATCC 90028,,≥80% growth inhibition,> 32 µg/mL
CCn1ccc([C@H](C)[C@](O)(Cn2cnnn2)c2ccc(F)cc2F)n1,"growth, broth microdilution",SC5314,"24 h, 30 °C, ≥50% inhibition",,0.0625 µg/mL
O=C(CC1COC(=O)N1/N=C/c1ccc([N+](=O)[O-])o1)c1ccccc1 (stereo not drawn),"microbial growth, broth dilution",ATCC14053,18 h,,> 50 µg/mL
CCCCCn1ccc([C@H](C)[C@](O)(Cn2cnnn2)c2ccc(F)cc2F)n1,"growth, broth microdilution",SC5314,"24 h, 30 °C, ≥50% inhibition",,< 0.008 µg/mL
NC(=O)C1COC(=O)N1/N=C/c1ccc([N+](=O)[O-])o1 (stereo not drawn),"microbial growth, broth dilution",ATCC14053,18 h,,> 50 µg/mL
Cc1ccc(Cn2ccc([C@H](C)[C@](O)(Cn3cnnn3)c3ccc(F)cc3F)n2)cc1,"growth, broth microdilution",SC5314,"24 h, 30 °C, ≥50% inhibition",,< 0.008 µg/mL
CC(C)SC1COC(=O)N1/N=C/c1ccc([N+](=O)[O-])o1 (stereo not drawn),"microbial growth, broth dilution",ATCC14053,18 h,,> 50 µg/mL
COc1ccc(N2C(=O)C=CC2=O)cc1,"microbial growth, broth dilution",,,,1 µg/mL
O=c1c2ccccc2sn1-c1cc(Br)cc(Br)c1,"growth, broth dilution",ATCC 10231,MIC-0,,3.13 µg/mL
C[Si](C)(C)Cc1ccc(C2COC(=O)N2/N=C/c2ccc([N+](=O)[O-])o2)cc1 (stereo not drawn),"microbial growth, broth dilution",ATCC14053,18 h,,> 50 µg/mL
COc1cc(Cn2ccc([C@H](C)[C@](O)(Cn3cnnn3)c3ccc(F)cc3F)n2)ccc1F,"growth, broth microdilution",SC5314,"24 h, 30 °C, ≥50% inhibition",,< 0.008 µg/mL
C/C(=N\NC(N)=S)c1ccc2c(c1)sc1nc(=O)c(C#N)cn12,"microbial growth, broth dilution",,,,< 210 µg/mL
O=C(NCCNCCO)c1cn(Cc2ccccc2)c2c(Cl)c(OCc3ccc(C(F)(F)F)cc3)c(Cl)cc2c1=O,,ATCC 90028,,≥80% growth inhibition,> 32 µg/mL
COc1ccc(-c2c(O)oc3c(CC=C(C)C)c(O)cc(O)c3c2=O)cc1,,NR-29450,"48 h, 37 °C",,> 500 µg/mL
C/C(=N/NC(=N)N)c1nnn(-c2ccc(C#CC(C)(C)O)cc2)c1C,"microbial growth, broth dilution",,,,16 µg/mL
C/C(=N\Nc1nc(C)cs1)c1ccc2c(c1)sc1nc(=O)c(C#N)cn12,broth microdilution,,,,< 241 µg/mL
CC(C)[C@@H](C)/C=C/[C@@H](C)[C@H]1CC[C@H]2C3=C[C@@H](O)[C@@]4(O)C[C@@H](O)CC[C@]4(C)[C@H]3CC[C@]12C,"microbial growth, broth dilution",,48 h,,175 µM
C/C(=N\Nc1nc(-c2ccccc2)cs1)c1ccc2c(c1)sc1nc(=O)c(C#N)cn12,"microbial growth, broth dilution",,,,< 238 µg/mL
CC(C)=CCc1cc2c(cc1O)OC[C@H]1c3ccc(O)c(CC=C(C)C)c3O[C@@H]21,,ATCC 10231,,,4 µg/mL
COC1COC(=O)N1/N=C/c1ccc([N+](=O)[O-])o1 (stereo not drawn),"microbial growth, broth dilution",ATCC14053,18 h,,> 50 µg/mL
C/C(=N\NC1=NC(=O)CS1)c1ccc2c(c1)sc1nc(=O)c(C#N)cn12,"microbial growth, broth dilution",,,,< 218 µg/mL
CC1C(=O)NC(=O)N1/N=C/c1ccc([N+](=O)[O-])o1 (stereo not drawn),"microbial growth, broth dilution",ATCC14053,18 h,,> 50 µg/mL
N#Cc1ccc2cccc(O)c2n1,"microbial growth, agar dilution",ATCC90028,,,1500 µM
CC(=NNC(=N)N)c1nnn(-c2ccc(C#CC3(O)CCCCC3)cc2)c1C,microbial growth,ATCC10231,,,7.8 µg/mL
CC(C)c1ccc(Cn2ccc([C@H](C)[C@](O)(Cn3cnnn3)c3ccc(F)cc3F)n2)cc1,"growth, broth microdilution",SC5314,"24 h, 30 °C, ≥50% inhibition",,< 0.008 µg/mL
C/C(=N/NC(=N)N)c1nnn(-c2ccc(C#Cc3ccsc3)cc2)c1C,"microbial growth, broth dilution",,,,32 µg/mL
C[C@@H](c1ccn(Cc2ccc(C(F)(F)F)cc2)n1)[C@](O)(Cn1cnnn1)c1ccc(F)cc1F,"growth, broth microdilution",SC5314,"24 h, 30 °C, ≥50% inhibition",,< 0.008 µg/mL
COc1c2c(cc3c1[C@@H]1Oc4c(ccc(O)c4CC=C(C)C)[C@@H]1CO3)OC(C)(C)C=C2,,ATCC 10231,,,128 µg/mL
CC(C)[C@@H](CC(=O)N[C@@H](CCCNC(=N)N)CC(N)=O)NC(=O)[C@H]1CCCC[C@@H]1NC(=O)C[C@H](CCCNC(=N)N)NC(=O)C[C@@H](NC(=O)[C@H]1CCCC[C@@H]1NC(=O)C[C@H](CCCNC(=N)N)NC(=O)C[C@@H](NC(=O)[C@H]1CCCC[C@@H]1N)C(C)C)C(C)C,"broth microdilution, XTT",SC5314,"RPMI, 1% DMSO",,5 µM
CCCCCC1CC2CCCC3CC(C)N=C(N1)N32 (stereo not drawn),fungal growth,ATCC 90028,,,31.7 µM
CCn1cc(C(=O)NCCNCCO)c(=O)c2cc(OCc3ccc(C(C)(C)C)cc3)c(Cl)cc21,,ATCC 90028,,≥80% growth inhibition,16 µg/mL
C[C@@H](c1ccn(Cc2ccc(F)cc2F)n1)[C@](O)(Cn1cnnn1)c1ccc(F)cc1F,"growth, broth microdilution",SC5314,"24 h, 30 °C, ≥50% inhibition",,< 0.008 µg/mL
[N-]=[N+]=NC1COC(=O)N1/N=C/c1ccc([N+](=O)[O-])o1 (stereo not drawn),"microbial growth, broth dilution",ATCC14053,18 h,,> 50 µg/mL
CC(=O)c1ccc2c(c1)sc1nc(=O)c(C#N)cn12,broth microdilution,,,,< 213 µg/mL
C[C@@H](c1ccn(Cc2ccccc2)n1)[C@](O)(Cn1cnnn1)c1ccc(F)cc1F,"growth, broth microdilution",SC5314,"24 h, 30 °C, ≥50% inhibition",,< 0.008 µg/mL
COc1cc2c(=O)c(C(=O)NCCNCCO)cn(Cc3ccccc3)c2cc1OCc1ccc(C(C)(C)C)cc1,,ATCC 90028,,≥80% growth inhibition,4 µg/mL

# Some of these lines once more:
Structure (SMILES),test,test system,conditions,scale,MIC
CC(C)[C@@H](CC(=O)N[C@@H](CCCNC(=N)N)CC(N)=O)NC(=O)[C@H]1CCCC[C@@H]1NC(=O)C[C@H](CCCNC(=N)N)NC(=O)C[C@@H](NC(=O)[C@H]1CCCC[C@@H]1NC(=O)C[C@H](CCCNC(=N)N)NC(=O)C[C@@H](NC(=O)[C@H]1CCCC[C@@H]1N)C(C)C)C(C)C,"broth microdilution, XTT",SC5314,"RPMI, 1% DMSO",,5 µM
COc1cc2c(=O)c(C(=O)NCCNCCO)cn(Cc3ccccc3)c2cc1OCc1ccc(C(C)(C)C)cc1,,ATCC 90028,,≥80% growth inhibition,4 µg/mL
